Assay results gathered from unrelated publications.
A part holds a random share of what one study measured. Changes are numbered by the printed parent chain.

Study 1 — method: aptamer microarray, sandwich; form: DNA with 2'F-ANA; sample: in vitro; concentration: 200 nM; added: Cy3 exosite-II aptamer, 400 nM; direction: higher = stronger binding; quantity: mean fluorescence intensity; oligonucleotide: GGTTGGTGTGGTTGG
Target: Prothrombin, mature alpha-thrombin (F2, Homo sapiens, UniProt P00734)
Notes: whole 15-mer aptamer, many near background
2'F-ANA at 3 4 5 7 9 12 15: 208 a.u.
2'F-ANA at 1 6 8 9 11 13 14: 54.4 a.u.
2'F-ANA at 5 7 8 10 12 13: 50 a.u.
2'F-ANA at 2 3 5 6 8 11 12 13 14: 53.6 a.u.
2'F-ANA at 2 3 5 6 7 8 9 11: 91.5 a.u.
2'F-ANA at 1 2 3 4 5 6 7 9 10 12 14: 50.8 a.u.
2'F-ANA at 1 2 3 6 8 9 10 11 12 13 14: 59.9 a.u.
2'F-ANA at 3 7 8 11 13 14: 811 a.u.
2'F-ANA at 1 2 3 4 5 6 7 8 9 10 11 13 14: 62.1 a.u.
2'F-ANA at 2 3 4 5 7 10 11 12 14: 47.2 a.u.
2'F-ANA at 1 3 4 7 11 12 14: 92 a.u.
2'F-ANA at 4 5 6 8 10 13: 55.6 a.u.
2'F-ANA at 1 4 6 9 10 13: 49.1 a.u.
2'F-ANA at 3 4 5 6 7 8 9 10 11 15: 50.2 a.u.
2'F-ANA at 1 4 5 7 8 9 10 11: 45.2 a.u.
2'F-ANA at 3 5 6 7 9 11 12 15: 186 a.u.

Study 2 — method: RNAcompete; form: RNA; sample: in vitro; concentration: 20 nM; notes: 7-mer, probes averaged, single round; relative to: mean of 7-mers; direction: higher = stronger binding; quantity: 7-mer Z-score
Target: PABPC1L2, full length, GST fusion (mouse, UniProt A0ABA7IW68)
Construct (chain): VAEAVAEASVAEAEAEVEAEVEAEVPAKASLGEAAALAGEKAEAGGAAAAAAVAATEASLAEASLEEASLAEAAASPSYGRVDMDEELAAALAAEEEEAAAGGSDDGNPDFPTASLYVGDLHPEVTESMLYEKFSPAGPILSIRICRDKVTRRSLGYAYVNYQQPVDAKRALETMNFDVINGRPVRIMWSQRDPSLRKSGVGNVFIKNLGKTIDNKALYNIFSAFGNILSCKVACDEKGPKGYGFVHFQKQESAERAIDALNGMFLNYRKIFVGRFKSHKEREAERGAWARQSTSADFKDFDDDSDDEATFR
UUAGCAG: -0.215
AGAGGGA: 0.336
CAUACUA: -0.242
ACUACGA: -0.079
CACGUUC: -0.336
UUGAUCA: -0.108
GCGGGAG: 0.253
AUAAUUC: 0.00254

Study 3 — target: CCNE2, cyclin fold, Cln2 fusion (human); method: yeast growth competition, sequencing; sample: yeast; notes: strong parent motif; relative to: not given; direction: higher = stronger binding; quantity: normalised enrichment score
Starting sequence: CDKN1B docking peptide (human); PSACRNLFGPVDH
H13Y: 1.01
S2D: 0.315
N6L: 1.11
S2P: 0.905
P10I: 0.861
A3F: 1.65
R5C: -0.132

Study 4 — method: RNA Bind-n-Seq; form: RNA; sample: in vitro; concentration: 200 nM; notes: whole 134-nt RNA, ends assumed; added: 150 mM LiCl; relative to: input library; direction: higher = stronger binding; quantity: log2 enrichment; all molecules: 7-deaza-guanosine replaces G
Target: Ras GTPase-activating protein-binding protein 1, full length (G3BP1, Homo sapiens, UniProt Q13283)
Sequence of UniProt Q13283 (whole entry, looked up): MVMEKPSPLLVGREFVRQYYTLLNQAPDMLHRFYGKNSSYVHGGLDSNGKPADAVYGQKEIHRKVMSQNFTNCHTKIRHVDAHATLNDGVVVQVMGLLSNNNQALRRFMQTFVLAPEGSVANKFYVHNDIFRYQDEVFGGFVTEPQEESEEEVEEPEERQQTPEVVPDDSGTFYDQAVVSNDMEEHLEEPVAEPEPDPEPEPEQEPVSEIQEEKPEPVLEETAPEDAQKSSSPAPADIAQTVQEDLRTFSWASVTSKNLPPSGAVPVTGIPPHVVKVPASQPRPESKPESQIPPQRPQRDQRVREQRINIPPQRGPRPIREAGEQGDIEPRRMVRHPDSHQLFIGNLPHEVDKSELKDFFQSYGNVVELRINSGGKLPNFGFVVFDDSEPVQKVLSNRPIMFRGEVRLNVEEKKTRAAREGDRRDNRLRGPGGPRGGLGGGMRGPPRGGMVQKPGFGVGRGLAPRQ
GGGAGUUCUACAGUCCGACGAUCUCCUCAAGUCCUGUGCUACACAUCGUAUGUACCGAAUCGGGCGGCGGCGGGAAAGUAUUAUGUUACGCCGUUCGGAUCUGCACUUCCAGCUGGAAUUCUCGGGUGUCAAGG: 1.15
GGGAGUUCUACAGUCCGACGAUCCAAGUCCUGUGCUACACAUCGUAUGUACCGAAUCGGGGUGGGGUUUGGGGUGGGGAAAGUAUUAUGUUACGCCGUUCGGAUCUGCACUUCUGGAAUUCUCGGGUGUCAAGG: -0.666
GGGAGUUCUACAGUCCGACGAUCCACAGACAACACGCACCCACACAGACACAGAGGGAAGGGGUUGGGAUGGGGACAGGGUGCACAGCAGGGCGGGGUAGGACUCCAGCCCCUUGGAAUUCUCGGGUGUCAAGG: -1.63
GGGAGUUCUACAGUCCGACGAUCCACAGACAACACGCACCCACUCAGACACAGAGGGAAGGGGUUGGGAUGGGGACAGGGUGCACAGCAGGGCGGGGUAGGACCCCAGCCCCUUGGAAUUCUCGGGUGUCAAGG: -0.183
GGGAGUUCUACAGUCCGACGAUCGAAAAUUUCUCAGUUCUUAAGAAUGCUUGCUGUGGGUAUAGUGCAGGUAUAUUGAAAGGAAUUUUUUUCUUGCAGCGGGAAAGAGACAUGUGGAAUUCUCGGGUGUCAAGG: -2.62
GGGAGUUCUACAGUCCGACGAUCUCCUCAAGUCCUGUGCUACACAUCGUAUGUACCGAAUCGGUGGUGGGGUGGAAAGUAUUAUGUUACGCCGUUCGGAUCUGCACUUCCAGCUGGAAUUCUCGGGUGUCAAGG: 0.596

Mixed results
PhoQ, residues 284 288 289 292 302 303 SMYGEC
fold induction (PhoP, residues 12 14 15 18 19 AQALL (Escherichia coli, UniProt P23836); Sort-seq, item: YFP reporter; E. coli; PhoQ-PhoP variant library, added: 10 µM Mg2+; relative to: high Mg2+ state, higher = stronger signaling): 6.85

Excerpt of the above (study 4):
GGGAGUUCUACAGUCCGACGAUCUCCUCAAGUCCUGUGCUACACAUCGUAUGUACCGAAUCGGGCGGCGGCGGGAAAGUAUUAUGUUACGCCGUUCGGAUCUGCACUUCCAGCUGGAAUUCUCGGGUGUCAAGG: 1.15
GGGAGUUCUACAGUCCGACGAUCCACAGACAACACGCACCCACUCAGACACAGAGGGAAGGGGUUGGGAUGGGGACAGGGUGCACAGCAGGGCGGGGUAGGACCCCAGCCCCUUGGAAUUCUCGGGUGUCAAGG: -0.183
